Published values collected from several papers.
Numbered parts are unrelated; each lists some results of a single study. Substitutions count along the parent as printed.

Series 1 — technique: protein-binding microarray; form: double-stranded DNA, one strand shown; sample: in vitro; concentration: 250 nM; setting: 60-bp whole probe; added: salmon DNA 0.4 mg/ml; relative to: random background probes; reading: higher = stronger binding; endpoint: log fluorescence; shared flanks, not repeated: GCCTAGCAC … GTCTTGATTCGCTTGACGCTGCTG
Target: Interferon regulatory factor 7, full length, phosphomimetic (IRF7, Homo sapiens, UniProt Q92985, residues 1-503, S101K/S471D/S472D/S475D/S476D/S477D/S483D/S484D/S487D)
Sequence of UniProt Q92985 (whole entry, unmodified, looked up): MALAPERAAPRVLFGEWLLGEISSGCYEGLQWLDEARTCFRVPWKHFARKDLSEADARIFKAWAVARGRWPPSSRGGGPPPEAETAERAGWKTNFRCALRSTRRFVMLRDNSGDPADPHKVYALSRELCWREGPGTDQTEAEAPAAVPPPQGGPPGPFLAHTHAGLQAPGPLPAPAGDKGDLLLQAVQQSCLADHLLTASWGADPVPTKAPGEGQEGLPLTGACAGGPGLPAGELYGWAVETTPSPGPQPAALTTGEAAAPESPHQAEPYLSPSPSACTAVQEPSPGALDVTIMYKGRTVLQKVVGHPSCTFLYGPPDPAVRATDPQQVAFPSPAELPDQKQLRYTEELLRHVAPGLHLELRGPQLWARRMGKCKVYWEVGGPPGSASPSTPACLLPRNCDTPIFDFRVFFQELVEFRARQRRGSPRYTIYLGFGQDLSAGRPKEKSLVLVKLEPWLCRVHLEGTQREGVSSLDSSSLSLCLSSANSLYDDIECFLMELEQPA
CTCTGCTTGTGTCTGGGCTTGTGCTAG: -0.541 z-score
GACGAACTGAGCTTCGAGACGTGCTAG: -0.142 z-score
TTAGGACTGGACTTTCGGTTCGTGCTA: 2.29 z-score
GACGGTATCGGTTACGGGACGTGCTAG: 0.827 z-score
CTGAGGCTGCCGTGGCCATGGTGCTAG: -1.31 z-score
GACGAACTGAGTATCGAGAAGTGCTAG: -0.101 z-score

Series 2 — technique: RNA Bind-n-Seq; form: RNA; sample: in vitro; concentration: 365 nM; relative to: no-protein control; reading: higher = stronger binding; endpoint: RBNS enrichment (R)
Target: RNA binding protein fox-1 homolog 2, RRM domain, GST-SBP tag (RBFOX2, Homo sapiens, UniProt O43251-10, residues 100-194)
Setting: natural RNA segment, single round, ends assumed
Shared flanks, not repeated: GGGAGUUCUACAGUCCGACGAUC … UGGAAUUCUCGGGUGCCAA
Residues (chain): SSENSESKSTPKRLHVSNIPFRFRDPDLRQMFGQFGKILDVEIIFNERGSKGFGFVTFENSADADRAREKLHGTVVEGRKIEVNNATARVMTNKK
GGAGCAGAAGCCGGAGUGGCGGGGCACGCUGCCGCCUUCCCCAUCACGGAGGGUCCAGACUGUCCACUCGGGGGUGGAGUGAGACUGACUGCAAGCCCCACCCUCCUUGA: 1.03
AAUUCUGCUCCCAAGCCCUUGUAUCUUGGGCUUCAUUUUAGGCUCAUGUGUCAGAUCUGCAUGCAUUGCUUGCAUUUUUCUGGUAUCUGAAUGUUGGUUCCUUGUUCCAG: 0.647
UCCCCAUCCUGAUGCUUUCAUGUUGGUUCCUGACACAUGGUCUGGCUUUGGGUUUGAAGGGCAAGGGUGGCUGUGAACCACCCCCACCCAGCCGUCAGGCCCGCUUCGUC: 0.298
AAGUUGUUCAAAAUACAUUAUUAGAUAAUUCUAAAGUGAGAAAAAUUAGAUUCUAAAACACAAAUCACAAGAACGUUUGAUAUUGAAGUGUCUGGCUUUAACAUGUGAUU: 0.396
AGGCCCACUCCAGGAGGUGGGCCUCUGGAAUUACAUCUCUACCCUACCCACUUUGGAACCCACUUUCCCCAGUCUCUAGGUCCUGAUGCCUAGUGUGAUGAAGACCUUGC: 0.364

Series 3 — target: CCNE1, cyclin fold, Cln2 fusion (human); technique: yeast growth competition, sequencing; sample: yeast; setting: strong parent motif; relative to: not given; reading: higher = stronger binding; endpoint: normalised enrichment score
Starting sequence: BRCA2 docking peptide (human); PSIKRNLLNEFDR; partner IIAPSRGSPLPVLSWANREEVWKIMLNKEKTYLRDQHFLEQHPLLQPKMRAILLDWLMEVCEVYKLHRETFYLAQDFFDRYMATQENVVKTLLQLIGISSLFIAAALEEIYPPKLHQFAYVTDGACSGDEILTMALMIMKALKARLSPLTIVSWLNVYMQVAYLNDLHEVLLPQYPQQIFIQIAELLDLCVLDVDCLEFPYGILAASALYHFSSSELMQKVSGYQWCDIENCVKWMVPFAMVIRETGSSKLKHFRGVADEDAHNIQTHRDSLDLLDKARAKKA
R13M: 1.97
F11P: -0.463
R13G: 1.92
S2K: 1.48
L7A: -0.00139
L7P: -0.385

Mixed results
PhoQ, residues 284 288 289 292 302 303 NLALSC — fold induction (PhoP, residues 12 14 15 18 19 LWHVM (Escherichia coli, UniProt P23836); Sort-seq, refers to: YFP reporter; E. coli; PhoQ-PhoP variant library, added: 10 µM Mg2+; relative to: high Mg2+ state, higher = stronger signaling): 1.63

A few entries again (series 3):
S2K: 1.48
L7A: -0.00139
L7P: -0.385
